Measurements collected from several papers.
Protocols differ between the studies behind these lines. “And” joins repeats or separate records; there may be more than shown. ± gives the spread as reported. Values after ≈ are worked out from the molar mass of the structure shown.

| Compound | assay | test system | conditions | scale | quantity | result |
| --- | --- | --- | --- | --- | --- | --- |
| CSCC[C@H](NC(=O)CNC(=O)[C@H](CCCCN)NC(=O)[C@H](CC(C)C)NC(=O)[C@@H]1CCCN1C(=O)[C@H](CO)NC(=O)[C@H](Cc1c[nH]cn1)NC(=O)[C@H](Cc1c[nH]c2ccccc12)NC(=O)[C@H](CCCNC(=N)N)NC(=O)[C@H](CC(C)C)NC(=O)[C@H](CCCNC(=N)N)NC(=O)[C@H](Cc1c[nH]c2ccccc12)NC(=O)[C@H](CS)NC(=O)CCCCCNC(=O)CN1CCN(CC(=O)O)CCN(CC(=O)O)CCN(CC(=O)O)CC1)C(=O)O [copper-64 labelled] | ex vivo biodistribution | male C57BL/6J mice, kidney | intravenous, 1.85 MBq, 2 h, B16-F10 tumour-bearing |  | tissue uptake | 39.9 %ID/g |
| Cc1sc2c(c1C)C(c1ccc(-c3cccc(NC(=O)c4cnn5cccnc45)c3)cc1)=N[C@@H](CC(N)=O)c1nnc(C)n1-2 |  | mouse | oral |  | oral bioavailability | < 5% |
| CC[C@H](C)[C@H](NC(=O)[C@H](C)NC(=O)[C@H](CCCCN)NC(=O)[C@H](CCCCN)NC(=O)[C@@H](N)CCCNC(=N)N)C(=O)N[C@@H](CCCCN)C(=O)N[C@@H](CC(C)C)C(=O)N[C@H](C(=O)N[C@@H](CCCCN)C(=O)N[C@@H](CCCCN)C(=O)N[C@@H](CC(C)C)C(=O)N[C@H](C(=O)N[C@@H](CCCCN)C(=O)N[C@@H](CCCCN)C(=O)N[C@@H](CC(C)C)C(=O)N[C@@H](CCCCN)C(=O)N[C@@H](CCCCN)C(=O)N[C@@H](C)C(=O)N[C@@H](CC(C)C)C(=O)N[C@@H](CCCCN)C(=O)O)C(C)C)C(C)C |  | human red blood cells | 4 mg/L, 1 h, mean of replicates |  | hemolysis | 1.17% |
| CC(C)[C@@H]1NC(=O)CNC(=O)[C@H](CC(N)=O)NC(=O)[C@H](CCCNC(=N)N)NC(=O)[C@H](Cc2ccc(O)cc2)NC(=O)[C@H](C(C)C)NC(=O)[C@@H](NC(=O)[C@@H](NC(=O)[C@H](CC(N)=O)NC(=O)[C@H](Cc2c[nH]c3ccccc23)NC(=O)[C@H](C)NC(=O)[C@H](Cc2ccccc2)NC(=O)CNC(=O)[C@H](CCCCN)NC(=O)[C@H](Cc2ccccc2)NC(=O)[C@H](Cc2ccccc2)NC(=O)[C@H](CCCCN)NC(=O)OCC2c3ccccc3-c3ccccc32)C(C)C)CSSC[C@@H](C(=O)N[C@@H](Cc2c[nH]cn2)C(=O)N[C@@H](CCCNC(=N)N)C(=O)N[C@@H](CCCNC(=N)N)C(=O)N[C@@H](C)C(=O)N[C@@H](CC(N)=O)C(N)=O)NC(=O)[C@H](C(C)C)NC(=O)[C@H](CCCNC(=N)N)NC1=O |  | ICR mice, serum | intraperitoneal, 10 mg/kg, day 5 |  | calcium | 1.35 ± 0.06 mmol/L |
| Cc1cc(-c2ccc3ccccc3c2)nnc1NCCN1CCN(C)CC1 | metabolic stability | human, liver microsomes | 10 min |  | compound remaining | 97.8% |
| NC1CCN(C(=O)Oc2ccc(C3CCCC4(C3)OOC3(O4)C4CC5CC(C4)CC3C5)cc2)CC1 (racemic) |  | male mouse, plasma | intravenous, 10 mg/kg |  | MRT(0-inf) | 2.53 h |
| CN[C@H](CC(C)C)C(=O)N[C@H]1C(=O)N[C@@H](CC(N)=O)C(=O)N[C@H]2C(=N)N[C@H]3C(=O)N[C@H](C(=O)N[C@H](C(=O)NCCC[N+](C)(C)C)c4cc(O)cc(O)c4-c4cc3ccc4O)[C@H](O)c3ccc(c(Cl)c3)Oc3cc2cc(c3O[C@@H]2O[C@H](CO)[C@@H](O)[C@H](O)[C@H]2O[C@H]2C[C@](C)(NCc3ccc(-c4ccc(Cl)cc4)cc3)[C@H](O)[C@H](C)O2)Oc2ccc(cc2Cl)[C@H]1O |  | mouse | intravenous, 10 mg/kg |  | half-life | 2.2 h |
| CCCCC[C@H]1C(=O)N[C@H](C)C(=O)N(C)[C@@H](CCCCC)C(=O)N(C)[C@H](C)C(=O)N(C)[C@@H](CCCCC)C(=O)N(C)[C@H](C)C(=O)N(C)[C@@H](CCCCC)C(=O)N(C)[C@H](C)C(=O)N1C | PAMPA, HPLC-UV |  | 500 µM, pH 7.4 |  | log Papp | -5.32 ± 0.04 |
| C=Cc1c(C)c2cc3nc(c(CC(=O)[O-])c4[n-]c(cc5nc(cc1[n-]2)C(C)=C5CC)c(C)c4C(=O)[O-])C(CCC(=O)[O-])C3C.[Cu+2].[Na+].[Na+].[Na+] (centres unmarked) |  | Wistar rat | oral, 5000 mg/kg, acute toxicity | reference: untreated | body weight | no effect |
| NC(=O)c1cc(-c2ccsc2)ccc1OCCc1cc(F)cc(F)c1 |  | male CD-1 mouse liver microsomes | concentration not given, 30 min, pH 7.4 |  | metabolized fraction | 90% |
| COc1cnc2cccc(N3CCc4c(cc(Cn5ccnc5)cc4-c4cn(C)nc4C(F)(F)F)C3=O)c2c1 |  | BALB/c nude mice, MV4-11 xenograft | intraperitoneal, 50 mg/kg, day 35 |  | body weight | 24.1 g and 23.4 g and 20.1 g and 18.7 g and 21.3 g |
| N=C(N)NCCC[C@H](NC(=O)[C@H](CCCNC(=N)N)NC(=O)[C@H](CCCNC(=N)N)NC(=O)[C@H](CCC(N)=O)NC(=O)[C@H](CCCNC(=N)N)NC(=O)[C@H](CCCNC(=N)N)NC(=O)[C@H](CCCCN)NC(=O)[C@H](CCCCN)NC(=O)[C@H](CCCNC(=N)N)NC(=O)CNC(=O)[C@H](Cc1ccc(O)cc1)NC(=O)[C@H](Cc1ccccc1)NC(=O)[C@H](Cc1ccccc1)NC(=O)[C@H](Cc1ccccc1)NC(=O)OCC1c2ccccc2-c2ccccc21)C(=O)O | TEM | PBS 10 mM | 64 µM, overnight, pH 7.4 |  | nanorod diameter | 33.4 ± 6.8 nm |
| CC(=O)NCCCC[C@@H]1NC(=O)[C@H](Cc2c[nH]c3c(C)cccc23)NC(=O)[C@H]([C@@H](C)O)NC(=O)[C@H](CC(N)=O)NC(=O)[C@@H](NC(C)=O)C(C)(C)SSC(C)(C)[C@@H](C(=O)N[C@@H](Cc2ccc(OCCN)cc2)C(=O)N[C@@H](Cc2ccc3ccccc3c2)C(=O)NC2(C(=O)N[C@@H](CCC(=O)O)C(=O)N[C@@H](CC(N)=O)C(=O)N[C@@H](Cc3cccnc3)C(=O)N(C)CC(N)=O)CCOCC2)NC1=O | equilibrium dialysis | rat, plasma | 0.01 µM |  | unbound fraction | 49.2 ± 3% |
| CC[C@H](C)[C@H](NC(=O)[C@H](CCCCN)NC(=O)CNC(=O)[C@H](CC(C)C)NC(=O)[C@H](Cc1ccccc1)NC(=O)[C@H](CCCCN)NC(=O)[C@H](CO)NC(=O)[C@H](Cc1ccccc1)NC(=O)[C@H](Cc1c[nH]c2ccccc12)NC(=O)[C@H](CCC(N)=O)NC(=O)[C@@H](NC(=O)[C@H](Cc1ccccc1)NC(=O)CCCCCNC(=O)CN1CCN(CC(=O)O)CCN(CC(=O)O)CCN(CC(=O)O)CC1)C(C)C)C(=O)N[C@@H](CCC(=O)O)C(=O)N1CCC[C@H]1C(=O)N[C@@H](CC(=O)O)C(=O)N[C@H](C(=O)N[C@@H](CO)C(=O)N[C@@H](CCC(N)=O)C(=O)N[C@H](C(=O)N[C@@H](CCC(N)=O)C(=O)N[C@@H](CC(=O)O)C(=O)N1CCC[C@H]1C(=O)N[C@@H](CC(N)=O)C(=O)N[C@@H](CC(=O)O)C(=O)N[C@@H](CCC(N)=O)C(=O)N[C@@H](Cc1ccc(O)cc1)C(=O)N[C@@H](CCC(=O)O)C(=O)N1CCC[C@H]1C(=O)N[C@@H](Cc1ccccc1)C(=O)O)C(C)C)C(C)C [copper-64 labelled] |  | C57BL/6 mice, male, tumour-free, liver | 1 h |  | tissue uptake | 20.4 ± 2.2 %ID/g |
| C#Cc1c(F)ccc2cc(O)cc(-c3ncc4c(N5CC6CCC(C5)N6C(=O)OC(C)OC(C)=O)nc(OC[C@@]56CCCN5C[C@H](F)C6)nc4c3F)c12 (some centres unmarked) | measured: prodrug | mouse whole blood | 1 µM |  | t1/2 | 3.59 min |
| CSCC[C@H](N)C(=O)N[C@@H](C)C(=O)N[C@@H](Cc1c[nH]c2ccccc12)C(=O)N[C@@H](Cc1c[nH]cn1)C(=O)N[C@@H](CC(=O)O)C(=O)N[C@@H](CC(=O)O)C(=O)N[C@@H](CCC(=O)O)C(=O)N[C@@H](CCC(=O)O)C(=O)N[C@@H](Cc1ccccc1)C(=O)N[C@@H](C)C(=O)N[C@@H](CCCNC(=N)N)C(=O)N[C@@H](CCCNC(=N)N)C(=O)N[C@@H](CCCNC(=N)N)C(=O)N[C@@H](CCCNC(=N)N)C(=O)NCCCCCC(=O)NCCCCC(NC(=O)CCCCCNC(=O)[C@H](CCCNC(=N)N)NC(=O)[C@H](CCCNC(=N)N)NC(=O)[C@H](CCCNC(=N)N)NC(=O)[C@H](CCCNC(=N)N)NC(=O)[C@H](C)NC(=O)[C@H](Cc1ccccc1)NC(=O)[C@H](CCC(=O)O)NC(=O)[C@H](CCC(=O)O)NC(=O)[C@H](CC(=O)O)NC(=O)[C@H](CC(=O)O)NC(=O)[C@H](Cc1c[nH]cn1)NC(=O)[C@H](Cc1c[nH]c2ccccc12)NC(=O)[C@H](C)NC(=O)[C@@H](N)CCSC)C(=O)NCCCCC(NC(=O)C(CCCCNC(=O)CCCCCNC(=O)[C@H](CCCNC(=N)N)NC(=O)[C@H](CCCNC(=N)N)NC(=O)[C@H](CCCNC(=N)N)NC(=O)[C@H](CCCNC(=N)N)NC(=O)[C@H](C)NC(=O)[C@H](Cc1ccccc1)NC(=O)[C@H](CCC(=O)O)NC(=O)[C@H](CCC(=O)O)NC(=O)[C@H](CC(=O)O)NC(=O)[C@H](CC(=O)O)NC(=O)[C@H](Cc1c[nH]cn1)NC(=O)[C@H](Cc1c[nH]c2ccccc12)NC(=O)[C@H](C)NC(=O)[C@@H](N)CCSC)NC(=O)CCCCCNC(=O)[C@H](CCCNC(=N)N)NC(=O)[C@H](CCCNC(=N)N)NC(=O)[C@H](CCCNC(=N)N)NC(=O)[C@H](CCCNC(=N)N)NC(=O)[C@H](C)NC(=O)[C@H](Cc1ccccc1)NC(=O)[C@H](CCC(=O)O)NC(=O)[C@H](CCC(=O)O)NC(=O)[C@H](CC(=O)O)NC(=O)[C@H](CC(=O)O)NC(=O)[C@H](Cc1c[nH]cn1)NC(=O)[C@H](Cc1c[nH]c2ccccc12)NC(=O)[C@H](C)NC(=O)[C@@H](N)CCSC)C(N)=O (some centres unmarked) |  | C57BL/6 mouse female, thymus | dose not given, 6 h | reference: total | tissue distribution | 0.71% and 0.91% and 0.72% |
| CN1Cc2cc(Cl)ccc2-n2c(nnc2C2CCN(c3cccc([18F])n3)CC2)C1 |  | C57BL/6 mouse male, thymus | intravenous, 3.7 MBq, 1 min |  | tissue uptake | 4.51 ± 1.63 %ID/g |
| O=C1NC2(CC2)COc2ncc(F)cc2[C@H]2COCCN2c2ccn3ncc1c3n2 |  | Sprague-Dawley rat, male, blood | oral, 2.5 mg/kg/day, end of recovery, 4-week repeated-dose toxicity | reference: red blood cells | reticulocytes | 2.3 ± 0.4% |
| CCCc1cc2cc(-n3nc(C)c4c3CC3(CCC3)CC4=O)cc(N3CCC(O)CC3)c2c(=O)[nH]1 | shake flask |  | 24 h, pH 6.8, room temperature |  | aqueous solubility | 0.596 µM (≈ 0.283 µg/mL) |
| CCN(CC)CCOc1ccc(-c2nnn(Cc3ccc(OC)cc3)c2N)cc1 | metabolic stability | dog, liver microsomes |  |  | half-life | 0.765 h |
